# Results from different studies.
# Each numbered part is a random draw from the data of one study; scales do not carry over between parts.

# Series 1
# Target: PABPC1L2, full length, GST fusion (mouse, UniProt A0ABA7IW68)
# Technique: RNAcompete
# Molecule type: RNA
# Sample: in vitro
# Concentration: 20 nM
# Notes: 7-mer, probes averaged, single round
# Reference: mean of 7-mers
# Reading: higher = stronger binding
# Construct (chain): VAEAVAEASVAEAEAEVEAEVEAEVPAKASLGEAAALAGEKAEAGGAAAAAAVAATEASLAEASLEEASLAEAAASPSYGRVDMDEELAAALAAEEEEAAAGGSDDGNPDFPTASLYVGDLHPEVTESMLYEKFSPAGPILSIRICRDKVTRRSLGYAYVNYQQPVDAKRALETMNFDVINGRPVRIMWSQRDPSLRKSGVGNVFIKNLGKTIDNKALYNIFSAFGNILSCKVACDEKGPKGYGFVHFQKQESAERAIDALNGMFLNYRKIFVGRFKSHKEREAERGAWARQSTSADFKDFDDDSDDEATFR
Strand,7-mer Z-score
UAAUCUA,-0.0917
AUGACAU,-0.012
GCUAUAC,-0.0899
AGGCCGU,-0.157
UAGAGAA,0.245
CCCAUAC,-0.269
CCGGUGC,-0.228
CAUAUCA,-0.171
CAGCGGC,-0.0391
AGCCCAG,-0.122
UAACGAU,-0.124
UAGGUGU,-0.266
ACGUUAA,-0.0826
AUAGUAU,-0.103
CGAGCUC,-0.382
GUGAGCG,-0.153
GAGCUUC,-0.222
CCGGUUA,-0.269
CGCUGCG,-0.369
UGUGGUA,-0.2

# Series 2
# Target: POU, POU domain (Salpingoeca helianthica)
# Technique: Spec-seq
# Molecule type: double-stranded DNA, one strand shown
# Sample: in vitro
# Concentration: not given
# Notes: whole probe, mean of replicates
# Reference: not given
# Reading: lower = stronger binding
# Constant ends, left off below: GAGTCGTCTCGTCAGCAC … CCGTAGAGCACTCAGGTC
# Target sequence (chain): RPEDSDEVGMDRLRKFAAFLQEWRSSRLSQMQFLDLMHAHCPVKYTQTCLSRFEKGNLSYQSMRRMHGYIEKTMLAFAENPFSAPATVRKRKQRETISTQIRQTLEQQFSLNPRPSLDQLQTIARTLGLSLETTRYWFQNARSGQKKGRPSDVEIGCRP
Strand,relative binding energy [ln ratio]
ATGCGAGG,1.2
GAAATAAT,0.444
ATTCGGAT,1.36
CTTGTAAT,-0.262
ATGCAACC,1.11
ATTCTTAT,0.859
ATGCAAGT,1.18
ATCTCGAT,1.04
TCCGTAAT,0.626
CAGCTAAT,0.79
ATGCGTAA,0.747
AACTTAAT,0.324
GCAGTAAT,0.651
ATGCGGTG,1.34
AGGTTAAT,0.0773
ATGGCTAT,1.31
ATGCAGGC,1.32

# Series 3
# Target: RNA binding protein fox-1 homolog 2, RRM domain, GST-SBP tag (RBFOX2, Homo sapiens, UniProt O43251-10, residues 100-194)
# Technique: RNA Bind-n-Seq
# Molecule type: RNA
# Sample: in vitro
# Concentration: 365 nM
# Notes: natural RNA segment, single round, ends assumed
# Reference: no-protein control
# Reading: higher = stronger binding
# Constant ends, left off below: GGGAGUUCUACAGUCCGACGAUC … UGGAAUUCUCGGGUGCCAA
# Target sequence (chain): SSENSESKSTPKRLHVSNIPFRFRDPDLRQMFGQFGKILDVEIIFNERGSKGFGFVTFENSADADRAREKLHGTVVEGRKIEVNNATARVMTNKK
Strand,RBNS enrichment (R)
GUAUGGAUGUGCACAGUAUGUUUGAUUUUUAUCCACAAGAAUGAAUCUGAUUCAGAAUGCUUUUCUCAGCUGACAUACAGAGCACUAAAUAUUUUAAGGCAAGUCCAUAG,0.717
AGCUUGGGAAUACGUCACCUGAGAUCACAGGUGAUCCAAGCCGCAGAUGUGACAGCUGGGCUCUGAAGCUAUUUCUGUGUGUGGAGGGAGACAGGAAAGGGUGCUGUGCU,1.07
ACACUUUUUCCCUGUUAGAAUUCUUUGCAUUUUUGUGUUUGUAACAGAAACGCCUUAAGACACUAUGUUUGGGAAUAUAGGAAACUAUGUGUGUCCCAAGGAAAUCCCUG,0.443
UAGAAAGCUUUGGAAGUUUUUGUAGAUAGUAGAAAGGGGGGCAUCACCUGAGAAAGAGCUGAUUUUGUAUUUCAGGUUUGAAAAGAAAUAACUGAACAUAUUUUUUAGGC,1.05
UGCACUGAGGUAACAUCUAAAACAGAGAUGUGGUUCUUAAUGUUUAACAGAACAGUUCUAAUCCUGCCACGUGUUAUCAUUAUAGAUUUUAUAGUUGCCUUUCUAACUAC,0.301
GUUUUCAUUAACUGCAGUAUAUACAGUUCACUACAUAUGGGUUGUUUGAGUUUUUUGUGUGCUGUAUUUCUUUCUGUUUUUUAAUACCUGGUUUUGUACAUAUCUAACUC,1.78
CUUAAAAGUCCUACGUGACUGAUUUUAAACAUUGUGAUAAAAUUAAUUUUCAGUAGAAUAGUUGAAUGUGUUAAGAUAGGAUUUUAUGUUAGAGAUACCAGAAUGCUGGU,1.16
UGCAGACUCAUCCUUUUUAAAUGAGACUUGUUUUCCCCUCUCUUUGAGUCAAGUCAAAUAUGUAGAUUGCCUUUGGCAAUUCUUCUUCUCAAGCACUGACACUCAUUACC,0.6
CCGGGGGUCCUGUGGAGGAGUACAUGGAGGACUCCAGGUACAGCGCAGGAGUCACGGCUUUUGUUUUUUGACAUUGGCCCCCGGUUCUACCAAUGACAGGGUGCCCUGGC,0.29
CAUCAACUCUGGCUCUUGUAGGGGCUGGAGCAGCUAGUUCAUGCUGCCUGUGGAACUCACUUCCUGGACUGAUGAGCACGGUCAGCCUCUGUCCCCACUGCAGGUGCUGC,0.345
ACAGUUGACAGCGUUCUGAAAAGAUGCCAUUUGUUUCCUUCUGAUCUCUCACUGAAUAAUGUUUACUGUACAGUCUUCCCAAGGUGAUUCCUGCGACUGCAGGCACUGGU,0.224
AUAACAUCAAUUUAGUUACAAUGCAUGUAGUUUGCACAAUGAUUAAAAUGAAUAGGUUUGUGUUUAUAGCCUAUAAUAACUCUAGUUGAAUCAUGUACACAGCAGGAGUG,7.32

# Series 4
# Target: Interferon regulatory factor 7, full length, phosphomimetic (IRF7, Homo sapiens, UniProt Q92985, residues 1-503, S101K/S471D/S472D/S475D/S476D/S477D/S483D/S484D/S487D)
# Chain of UniProt Q92985 (whole entry, unmodified, looked up): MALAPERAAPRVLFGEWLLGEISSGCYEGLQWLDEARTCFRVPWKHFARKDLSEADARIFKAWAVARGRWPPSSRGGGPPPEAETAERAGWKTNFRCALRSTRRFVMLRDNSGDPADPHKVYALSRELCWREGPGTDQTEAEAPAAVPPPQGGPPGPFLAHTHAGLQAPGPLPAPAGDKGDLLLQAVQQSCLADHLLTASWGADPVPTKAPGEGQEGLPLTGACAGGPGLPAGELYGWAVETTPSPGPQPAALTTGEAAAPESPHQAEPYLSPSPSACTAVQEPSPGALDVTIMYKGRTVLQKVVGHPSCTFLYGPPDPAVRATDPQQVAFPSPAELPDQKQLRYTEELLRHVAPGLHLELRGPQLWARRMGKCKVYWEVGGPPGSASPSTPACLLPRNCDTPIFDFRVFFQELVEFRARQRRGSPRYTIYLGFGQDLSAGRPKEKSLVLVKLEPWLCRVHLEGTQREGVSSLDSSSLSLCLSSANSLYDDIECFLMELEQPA
# Technique: protein-binding microarray
# Molecule type: double-stranded DNA, one strand shown
# Sample: in vitro
# Concentration: 250 nM
# Notes: 60-bp whole probe
# Together with: salmon DNA 0.4 mg/ml
# Reference: random background probes
# Reading: higher = stronger binding
# Constant ends, left off below: GCCTAGCAC … GTCTTGATTCGCTTGACGCTGCTG
Strand,log fluorescence
GACGATTTCATTATCGAGACGTGCTAG,0.527 z-score
TTAGGTTTCGATATCGGTTAGTGCTAG,12.2 z-score
TTAGGACTGGACACTGGGTGAGTGCTA,-0.764 z-score
GACGGACTGGAATTTCGGGACGTGCTA,-0.0955 z-score
TCACATACTGATTTCCAACTGTGCTAG,0.519 z-score
GACGGTCTCCTTTTCCTTACGTGCTAG,1.16 z-score
GACGAACTGGGGTTTCGCGACGTGCTA,-0.02 z-score
GACGGATTGGGACTGGGGACGTGCTAG,-0.382 z-score
TTAGATTTCAGACTGGATTGGTGCTAG,0.0378 z-score
TTAGGTTTCGGACTGGGTTTGTGCTAG,3.6 z-score
TTAGGTTTCGGGTATAGGTTAGTGCTA,6.2 z-score
GACGGTATCAGGACTGGGGACGTGCTA,-0.487 z-score
GGCGGTATCCTTATCCTGACGTGCTAG,-0.187 z-score
GACGGTATCCTACTGATGACGTGCTAG,-0.448 z-score
TTTGCTCTGTGCATAGGCCTGTGCTAG,-0.2 z-score
TCCATTTTCTGAATGCTACTGTGCTAG,1.7 z-score
GACGGTTTCAACACTGGGGACGTGCTA,0.337 z-score
CTGCTAGGGCACACAAGTCAGTGCTAG,-0.654 z-score
TTAGATATCGGATATCGATTAGTGCTA,0.358 z-score
TCACCTTTCCTTTGCCTACTGTGCTAG,1.18 z-score
CAAAGAAAAAGAAAAAAAAAGGTGCTA,0.587 z-score
TTCATTATTGTTTCCTCTTTGTGCTAG,1.59 z-score
TTAGGTCTCCTGATCCTTTAGTGCTAG,-0.208 z-score
GACGGACTGCTCATCCTGACGTGCTAG,-0.809 z-score
GACGGTCTCGGTTTCGCGACGTGCTAG,6.39 z-score

# Series 5
# Target: Histone acetyltransferase KAT6A, both winged helices, GST fusion (KAT6A, Homo sapiens, UniProt Q92794, residues 1-181)
# Technique: protein binding microarray
# Molecule type: double-stranded DNA, one strand shown
# Sample: in vitro
# Concentration: not given
# Notes: 8-mer, flanks averaged, mean of 2 arrays, mostly near background
# Reference: not given
# Reading: higher = stronger binding
# Residues (chain): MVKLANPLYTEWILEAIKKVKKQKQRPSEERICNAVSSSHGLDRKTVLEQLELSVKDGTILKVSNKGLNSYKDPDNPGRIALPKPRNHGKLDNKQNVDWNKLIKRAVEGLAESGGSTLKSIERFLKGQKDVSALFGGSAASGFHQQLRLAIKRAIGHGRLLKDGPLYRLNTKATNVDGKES
Strand,E-score
AAATCTAT,0.0171
AATACGAG,-0.0636
AACCGCCC,0.0874
AGCTTCGA,-0.188
TAGATAGA,-0.161
GAAGTTAC,-0.114
CAAGTTAA,-0.096
CAGGGGAA,-0.226
AAAACTCC,-0.0594
TATCCACA,-0.19
GTATAGTA,0.135
AACAAACT,-0.129
CAGGAGAA,-0.189
AACAATGC,-0.0337
TATGTGAA,-0.079
CAGAACCA,-0.017

# Series 6
# Target: Sal-like protein 4, full length isoform A (SALL4, Homo sapiens, UniProt Q9UJQ4, residues 1-1053)
# Chain of UniProt Q9UJQ4 (whole entry, looked up): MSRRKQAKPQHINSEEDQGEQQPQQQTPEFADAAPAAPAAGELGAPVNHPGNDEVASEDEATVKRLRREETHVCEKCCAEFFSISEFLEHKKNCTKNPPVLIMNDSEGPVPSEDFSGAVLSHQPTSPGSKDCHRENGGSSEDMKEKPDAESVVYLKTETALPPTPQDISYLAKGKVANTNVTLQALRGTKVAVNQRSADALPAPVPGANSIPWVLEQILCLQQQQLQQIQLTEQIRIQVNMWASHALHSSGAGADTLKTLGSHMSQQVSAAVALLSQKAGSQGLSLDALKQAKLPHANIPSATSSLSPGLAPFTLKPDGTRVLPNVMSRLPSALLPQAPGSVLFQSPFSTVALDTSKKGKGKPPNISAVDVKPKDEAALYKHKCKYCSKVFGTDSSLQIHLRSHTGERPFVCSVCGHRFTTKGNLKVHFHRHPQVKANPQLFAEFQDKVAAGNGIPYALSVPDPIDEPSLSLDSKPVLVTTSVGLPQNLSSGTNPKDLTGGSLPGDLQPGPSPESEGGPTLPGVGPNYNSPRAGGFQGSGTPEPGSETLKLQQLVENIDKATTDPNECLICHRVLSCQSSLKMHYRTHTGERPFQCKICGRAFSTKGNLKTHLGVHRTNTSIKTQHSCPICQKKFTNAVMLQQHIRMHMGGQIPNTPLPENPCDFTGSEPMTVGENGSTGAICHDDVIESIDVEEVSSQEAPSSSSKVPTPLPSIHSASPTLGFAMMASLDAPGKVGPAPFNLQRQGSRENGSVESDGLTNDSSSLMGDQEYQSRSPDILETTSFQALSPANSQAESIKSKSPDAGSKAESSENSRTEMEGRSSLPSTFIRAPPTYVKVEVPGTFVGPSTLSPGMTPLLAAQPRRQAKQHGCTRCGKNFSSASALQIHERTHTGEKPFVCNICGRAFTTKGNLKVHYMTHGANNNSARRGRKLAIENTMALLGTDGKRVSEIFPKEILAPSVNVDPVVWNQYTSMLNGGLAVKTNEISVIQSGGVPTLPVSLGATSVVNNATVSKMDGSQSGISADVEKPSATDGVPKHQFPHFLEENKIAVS
# Technique: universal PBM
# Molecule type: double-stranded DNA, one strand shown
# Sample: in vitro
# Concentration: 600 nM
# Notes: 8-mer, flanks averaged, mean of replicates
# Reading: higher = stronger binding
Strand,E-score
AGCCCGAC,-0.379
CCATCGGC,-0.302
CTCCCCTA,-0.0956
AGCGTCTG,-0.157
AGGGCTGG,-0.319
CGACCCGA,-0.275
GAGAAGGA,-0.0218
ACTTCCAA,0.0409
AACCAGTG,-0.162
CCTGGTCA,-0.218
CATACCTA,0.0401
AAGCGGGA,-0.233
AGATCCCC,-0.183
ATCGCGGA,-0.115
CATTGTCC,0.0747
CGAAAACG,-0.122
